Published values pooled from the literature.
Parts stem from different laboratories: compare values within a part only.
UniProt P62837, sequence (whole entry, looked up): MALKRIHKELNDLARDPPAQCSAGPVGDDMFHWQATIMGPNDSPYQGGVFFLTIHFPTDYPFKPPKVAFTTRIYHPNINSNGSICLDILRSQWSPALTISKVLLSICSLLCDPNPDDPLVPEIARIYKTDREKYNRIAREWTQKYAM

Series 1
Target: Prothrombin, mature alpha-thrombin (F2, Homo sapiens, UniProt P00734)
Technique: aptamer microarray, sandwich
Molecule type: DNA with 2'F-ANA
Matrix: in vitro
Tested at: 200 nM
Notes: whole 15-mer aptamer, many near background
Added: Cy3 exosite-II aptamer, 400 nM
Reading: higher = stronger binding
Strand: GGTTGGTGTGGTTGG
Under “mean fluorescence intensity”, `2'F-ANA at 1 2 3 5 7 10 12 15` is recorded as 48.5 a.u.
For `2'F-ANA at 5 6 7 8 9 12 14 15`, “mean fluorescence intensity” read 107 a.u.
`2'F-ANA at 1 4 5 7 9 10 11 14` — result for “mean fluorescence intensity”: 47.1 a.u.
`2'F-ANA at 1 3 4 7 8 9 10 12 13 14`: “mean fluorescence intensity” 54.1 a.u.
`2'F-ANA at 3 6 7 8 10 11 12 13 14`: “mean fluorescence intensity” 338 a.u.
`2'F-ANA at 3 9 10 11 13` — result for “mean fluorescence intensity”: 444 a.u.
For `2'F-ANA at 1 7 8 9 10`, “mean fluorescence intensity” read 59.1 a.u.
`2'F-ANA at 1 4 7 8 9 11 13` — result for “mean fluorescence intensity”: 104 a.u.

Series 2
Target: Phosphate system positive regulatory protein PHO4, full length, GST-tagged (PHO4, Saccharomyces cerevisiae, UniProt P07270, residues 1-312)
Technique: competition protein-binding microarray
Molecule type: double-stranded DNA, one strand shown
Matrix: in vitro
Tested at: 2 µM
Notes: whole 60-bp probe, lowest competitor level
Added: Cbf1 competitor, 0.05 µM
Reading: higher = stronger binding
Residues (chain): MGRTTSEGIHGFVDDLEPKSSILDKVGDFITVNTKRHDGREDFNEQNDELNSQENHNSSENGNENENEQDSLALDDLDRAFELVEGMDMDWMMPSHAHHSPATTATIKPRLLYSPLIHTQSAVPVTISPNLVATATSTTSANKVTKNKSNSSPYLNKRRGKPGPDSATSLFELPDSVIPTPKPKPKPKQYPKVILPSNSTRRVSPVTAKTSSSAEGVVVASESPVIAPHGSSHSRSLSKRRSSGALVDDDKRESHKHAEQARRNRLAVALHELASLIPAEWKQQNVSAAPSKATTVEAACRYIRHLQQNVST
The fluorescence intensity of `CACCCCAACAAAGGACATGTGGAAATTGATCGTCGAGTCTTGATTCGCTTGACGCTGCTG` is reported as 8130 a.u.
`AATTCAAATGTGGACGTCGTGACTCGAAACAGCATAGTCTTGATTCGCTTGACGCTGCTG` gave a fluorescence intensity of 6250 a.u.
`CGGGGTTAAGTTTGCGGTGTGGGTGGCTTGCAGCAGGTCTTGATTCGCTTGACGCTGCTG` gave a fluorescence intensity of 5860 a.u.
For `CTTTCCCGATCTTTTCACGTGAGGTTAGCACATTTGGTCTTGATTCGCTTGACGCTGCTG`, the fluorescence intensity was 11400 a.u.
The fluorescence intensity of `CGTTCCAAGCCGAGTCACGTTTGTGGTGTTGTCGTAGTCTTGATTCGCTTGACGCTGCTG` is reported as 9780 a.u.
The fluorescence intensity of `AAATAAGGATTTTTGCACGTATATCCAACAGAATTAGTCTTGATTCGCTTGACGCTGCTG` is reported as 5890 a.u.
The fluorescence intensity of `CTCCCACCAGAACGTCACCTGCTCTCTTAATCAATGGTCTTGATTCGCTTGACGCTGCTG` is reported as 6170 a.u.
With `GTCTTGTCTCATTGCGCTGTGGGTGTCCCCACTTCAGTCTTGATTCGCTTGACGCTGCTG` the fluorescence intensity was 4450 a.u.

Further values, each from its own experiment
SRSF7: SRSF7 (Homo sapiens, UniProt Q16629)
B1: TRIM8 RING domain (UniProt Q9BZR9); chain WKNCFEEELICPICLHVFVEPVQLPCKHNFCRGCIGEAWAKDSGLVRCPECNQAYNQKPGLE
`RSL1D1 (Homo sapiens, UniProt O76021)` — result for cross-linked residues: “K235 to S1615” (SPTAN1 (Homo sapiens, UniProt Q13813); cross-linking MS; cell fractions; added: DSSO).
For `B1 (TRIM8 RING domain)`, “lacZ reporter activity” read 0 (UBE2D2 UBC core domain (UniProt P62837); yeast two-hybrid; yeast; mostly zero background; reference: not given, higher = stronger interaction).
`SRSF4 (Homo sapiens, UniProt Q08170)` — result for cross-linked residues: “K176 to K24” (SRSF7; cross-linking MS; cell fractions; added: DSSO).
Under binding, `REWGWRIPF` is recorded as “inactive” (HLA class I histocompatibility antigen, A alpha chain, allele A*26:03 (Homo sapiens, UniProt P04439); peptide-MHC binding; peptide; concentration not given).
Under cross-linked residues, `TCP1 (Homo sapiens, UniProt P17987)` is recorded as “E68 to P2” (CCT4 (Homo sapiens, UniProt P50991); cross-linking MS; cell fractions; added: DMTMM).
`SRSF2 (Homo sapiens, UniProt Q01130)` — result for cross-linked residues: “K52 to K24” (SRSF7; cross-linking MS; cell fractions; added: DSSO).

Some of these lines once more (series 2):
The fluorescence intensity of `CTCCCACCAGAACGTCACCTGCTCTCTTAATCAATGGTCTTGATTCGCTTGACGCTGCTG` is reported as 6170 a.u.
With `GTCTTGTCTCATTGCGCTGTGGGTGTCCCCACTTCAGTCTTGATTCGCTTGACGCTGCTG` the fluorescence intensity was 4450 a.u.
